Published values gathered from unrelated publications.
Parts stem from different laboratories: compare values within a part only.

Set 1
Target: Prothrombin, mature alpha-thrombin (F2, Homo sapiens, UniProt P00734)
Technique: aptamer microarray, sandwich
Form: DNA with 2'F-ANA
Medium: in vitro
Concentration: 200 nM
Notes: whole 15-mer aptamer, many near background
With: Cy3 exosite-II aptamer, 400 nM
Reading: higher = stronger binding
Strand: GGTTGGTGTGGTTGG
| Modification | mean fluorescence intensity [a.u.] |
| --- | --- |
| 2'F-ANA at 4 5 9 12 13 14 15 | 47.9 |
| 2'F-ANA at 4 5 6 7 8 9 10 15 | 51.5 |
| 2'F-ANA at 6 8 9 11 12 13 14 | 194 |
| 2'F-ANA at 1 4 7 8 13 15 | 115 |
| 2'F-ANA at 2 3 4 5 6 7 8 9 10 12 13 14 | 48.7 |
| 2'F-ANA at 1 2 5 7 13 | 64.5 |
| 2'F-ANA at 3 5 11 14 15 | 54.5 |
| 2'F-ANA at 1 4 5 6 7 9 10 12 15 | 54.8 |
| 2'F-ANA at 1 3 5 6 7 8 15 | 71.7 |
| 2'F-ANA at 1 3 4 5 6 9 11 12 13 15 | 64.6 |
| 2'F-ANA at 2 5 8 9 12 14 | 84.7 |
| 2'F-ANA at 1 3 6 7 8 9 12 13 15 | 433 |
| 2'F-ANA at 2 3 4 5 10 11 13 14 15 | 78.2 |
| 2'F-ANA at 1 3 5 7 11 12 | 105 |
| 2'F-ANA at 1 4 9 11 13 | 76.1 |
| 2'F-ANA at 1 2 6 7 8 10 13 14 15 | 52 |
| 2'F-ANA at 2 4 5 7 8 9 10 11 12 | 50.5 |
| 2'F-ANA at 3 4 5 11 12 13 15 | 108 |
| 2'F-ANA at 1 3 6 7 10 12 14 | 68.3 |
| 2'F-ANA at 2 3 5 8 9 10 15 | 75.1 |
| 2'F-ANA at 1 2 4 7 8 9 10 14 | 50.8 |
| 2'F-ANA at 2 3 5 6 8 9 10 11 | 53.3 |
| 2'F-ANA at 1 2 3 4 5 11 12 13 15 | 74.4 |
| 2'F-ANA at 1 2 3 6 7 8 10 11 12 14 15 | 54.2 |

Set 2
Target: Interferon regulatory factor 5, full length, phosphomimetic (IRF5, Homo sapiens, UniProt Q13568-2, residues 1-514, S451D/S453D/S456D/S462D)
Technique: protein-binding microarray
Form: double-stranded DNA, one strand shown
Medium: in vitro
Concentration: 940 nM top
Notes: 60-bp whole probe
With: salmon DNA 0.4 mg/ml
Relative to: random background probes
Reading: higher = stronger binding
Constant ends, left off below: GCCTAGCAC … GTCTTGATTCGCTTGACGCTGCTG
| Strand | fitted relative affinity [z-score] |
| --- | --- |
| GACGATTCCGGGTTTCGAGACGTGCTA | 2.14 |
| ATAGGTATCGGTATCGGTTAGTGCTAG | 10.1 |
| GACGTTCTCGGTTTCGGGACGTGCTAG | 6.61 |
| ATCGATTTCTTCCCTGTGAAAGTGCTA | 0.523 |
| TTTGATTCCAGTTTCGATTAGTGCTAG | 9.58 |
| GACGGTTTCGGGAATCGGGACGTGCTA | 7.34 |
| ATCATTCTCACTGCAGCCTTGTGCTAG | 2.4 |
| GACGATATAAGTTTCGAGACGTGCTAG | 2.96 |
| CTAGGTATCGGGTATCGGTTAGTGCTA | 6.5 |
| TTAGGTATCGGACTGGGTTGGTGCTAG | 3.57 |
| TCCTGTGACGTTAAGGTCTCGTGCTAG | -0.117 |
| TTAGATATCGGGTTTCGCTTAGTGCTA | 3.21 |
| TCATCTTTCACTGCTCCAACTGTGCTA | 1.69 |
| GACGAACTGGACTTTCGGGACGTGCTA | 0.612 |
| TTAGATTTCAGTATCGTTTAGTGCTAG | 3.4 |
| GACGAACTGAGTAACGAGACGTGCTAG | -0.19 |
| TTAGACCTCAGTATCGATTAGTGCTAG | 4.51 |
| TCAAATCTTGAGTTAGAACTGTGCTAG | -0.263 |
| TTAGGTAACCTTCTCCTTTAGTGCTAG | 0.258 |
| GACTATGCCGACTTTGGAAGTGTGCTA | -0.122 |
| CTTCACATATAATTTTGTCATGTGCTA | 0.303 |
| TTAGGTATCCTTCTCCTTTGGTGCTAG | 0.627 |
| GTTACTTTCTACTTCTCTTTGTGCTAG | 3.96 |
| TTAGGGATCGGACTGGGTTAGTGCTAG | -0.193 |

Set 3
Target: RNA binding protein fox-1 homolog 2, RRM domain, GST-SBP tag (RBFOX2, Homo sapiens, UniProt O43251-10, residues 100-194)
Technique: RNA Bind-n-Seq
Form: RNA
Medium: in vitro
Concentration: 365 nM
Notes: natural RNA segment, single round, ends assumed
Relative to: no-protein control
Reading: higher = stronger binding
Target sequence (chain): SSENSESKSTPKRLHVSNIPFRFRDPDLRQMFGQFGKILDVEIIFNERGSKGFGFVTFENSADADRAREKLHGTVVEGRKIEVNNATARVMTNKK
| Strand | RBNS enrichment (R) |
| --- | --- |
| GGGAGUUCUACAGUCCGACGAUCCCAUCUACUGCUGGCCAGGAGCCCCCAGUGCCCUGUGGUGGUGGACACCAUGCAGAACCAGAGCAGCCAGCUCUACGCAGCACUGCCUGAGAGGCUCUACAUAAUCCAGGUGGAAUUCUCGGGUGCCAA | 0.193 |
| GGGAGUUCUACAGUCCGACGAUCAUAGUCUUCACUGCUUCACCUUGUUAAGUCAGAUAUUUAUGAUAAUGAAGUACGGAACUGGGAACUGGGGUCGUUGUUGACUAAUUGGUCCUAAGAGGAUAAAUUAUGUAUGGAAUUCUCGGGUGCCAA | 0.597 |
| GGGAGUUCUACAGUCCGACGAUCCUCCAUGAAAUUCCGUUUCCUCUGUUAACCGUCACUGAGCACUCUUCCUCGGGGCUCUCUGCUGCUCUACCAAUUGUGUUGCUUUCCACUUCUUCAGUGAUUCUUCAGUGUGGAAUUCUCGGGUGCCAA | 0.266 |
| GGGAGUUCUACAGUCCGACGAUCGAGAUAAGGAUGAAGGGGGAGGAAAGGGUCCCUGGAGGCCUGUGCAUCUAUGCUCUGUUACAAGUGCCUUAGCAGGAGUCAGCAGCACCCUCCAGGUGCCCCUUGCCACAUGGAAUUCUCGGGUGCCAA | 0.633 |
| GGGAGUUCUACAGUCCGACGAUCGUAUAAUUGAGUUUUCAGUGGGGCAGUCAUUAUCCAGGUAAUCCAAGAUAUUUUAAAAUCUGUCACGUAGAACUUGGAUGUACCUGCCCCCAAUCCAUGAACCAAGACCAUGGAAUUCUCGGGUGCCAA | 0.29 |
| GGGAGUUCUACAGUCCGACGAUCAGAUUACUUUUUCAACUGUAAAUAAUGUACAUUUAAUGUCACAAGAAAAAAAUGUCUUCUGCAAAUUUUCUAGUAUAACAGAAAUUUUUGUAGAUGAAAAAAAUCAUUAUUGGAAUUCUCGGGUGCCAA | 0.599 |
| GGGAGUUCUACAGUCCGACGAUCCUUUCUGUAUAUGGAUGGCACAGAGGAAUCAAGGACAACUUAGCUCUCUGCAUACUUGGAACAACCAACUAUUUGUACAUUGAACGGAUGCUCUGAAACCCAAGGGACUGUGGAAUUCUCGGGUGCCAA | 8.21 |
| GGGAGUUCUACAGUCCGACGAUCGGGAAGCGGGGAGGGGCUGCGUGGCACAGCUAGUGGGCCUCCCCCUGCACAGCCCUGCAUGUACUAGCACCUUCAUCACUCCCCUCAGGGCAUGGUCUCAUCUCCGCAUCUGGAAUUCUCGGGUGCCAA | 6.46 |
| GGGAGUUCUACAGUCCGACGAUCGGGCCUUCAUGGAUCUCCAAGUCUCUCAGUCUGGUCCAGCAGGUUCUCUGCUCAAAGCUGCCUGUCUCCAGCCCAGACCUUUGCUGGGUGCACCAGAGCAUCUCAGCAGGUGGAAUUCUCGGGUGCCAA | 0.264 |
| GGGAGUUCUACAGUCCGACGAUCUCUGAGUGAAGGGCGUACACUGGCACCUGGUGUUGCCUAGAUCCCCCAUCUCCUCCUUCCAGCCAGGUCUGGAAGUUUCAACAGCCCAAGCUUAACUUCAUGUAAAGUCUUGGAAUUCUCGGGUGCCAA | 0.249 |
| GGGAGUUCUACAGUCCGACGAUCCUGUUGCAUACAGCUGAGUACAGUGAGCGGCUUCUGCACAUAUUUAACUCUCCCUAUAUAUUAACUCUCAAGUGCUGUAUUUUAAAAUUCAGCCCGUUUUUUAAAAAAGCUGGAAUUCUCGGGUGCCAA | 0.719 |
| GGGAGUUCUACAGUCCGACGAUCGUGAAGGCAGGGCAGGUACACUGAGUCUGGAAGCUCUGGGUGAGGCUCGGAGCUUGAAGCUCUUUGAUCCUGAAGUUUGAAUUCCCCUCUGCCUCCCGGCCUGGGCUUGUUGGAAUUCUCGGGUGCCAA | 0.596 |

Set 4
Target: Ras GTPase-activating protein-binding protein 1, full length (G3BP1, Homo sapiens, UniProt Q13283)
Chain of UniProt Q13283 (whole entry, looked up): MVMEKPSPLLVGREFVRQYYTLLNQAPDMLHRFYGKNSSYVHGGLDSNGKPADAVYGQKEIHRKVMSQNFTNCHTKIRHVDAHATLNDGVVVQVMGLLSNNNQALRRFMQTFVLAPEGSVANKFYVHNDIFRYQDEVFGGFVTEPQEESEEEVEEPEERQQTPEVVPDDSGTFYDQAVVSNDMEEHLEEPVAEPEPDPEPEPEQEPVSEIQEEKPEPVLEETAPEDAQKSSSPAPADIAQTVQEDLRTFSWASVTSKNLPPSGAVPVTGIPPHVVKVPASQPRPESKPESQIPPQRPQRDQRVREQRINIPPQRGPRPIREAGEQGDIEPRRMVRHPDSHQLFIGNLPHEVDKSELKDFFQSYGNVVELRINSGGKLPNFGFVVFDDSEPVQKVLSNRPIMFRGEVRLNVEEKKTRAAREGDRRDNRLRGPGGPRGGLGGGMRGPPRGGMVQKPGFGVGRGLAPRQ
Technique: RNA Bind-n-Seq
Form: RNA
Medium: in vitro
Concentration: 200 nM
Notes: whole 134-nt RNA, ends assumed
With: 150 mM LiCl
Relative to: input library
Reading: higher = stronger binding
All molecules: 7-deaza-guanosine replaces G
| Strand | log2 enrichment |
| --- | --- |
| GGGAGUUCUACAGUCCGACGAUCAGUCCUGUGCUACACAUCGUAUGUACCGAAUCAAAUUUAAAUUUUUUUAAACCCAAAAAAGUAUUAUGUUACGCCGUUCGGAUCUGCACUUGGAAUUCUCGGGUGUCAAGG | -0.916 |
| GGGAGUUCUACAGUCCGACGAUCUUCUCUCAUUUCUUCUGAAAUACAGGGCAAAUUGGAUCAAGGCAGUUCAGAUGUGUAGCAAACCCAGAGAAUUUGCAUUGGCUUUAGCCAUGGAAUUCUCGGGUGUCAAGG | -1.72 |
| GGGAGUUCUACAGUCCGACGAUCCACAGACAACACGCACCCACACAGACACAGAGGGAAGGGGUUGGGAUGGGGACAGGGUGCACAGCAGGGCGGGGUAGGACCACAGCCCCUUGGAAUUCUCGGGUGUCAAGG | -0.307 |
| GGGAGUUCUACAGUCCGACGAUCAGUCCUGUGCUACACAUCGUAUGUACCGAAUCGGGUGGGUUUUUUUGGGAAAAAGGGAAAGUAUUAUGUUACGCCGUUCGGAUCUGCACUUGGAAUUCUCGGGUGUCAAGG | -0.431 |
| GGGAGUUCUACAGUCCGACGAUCCCUGUGCUACACAUCGUAUGUACCGAAUCGGGUUUUUUUGGGUUUUUUUGGGUUUUUUUGGAAAGUAUUAUGUUACGCCGUUCGGAUCUGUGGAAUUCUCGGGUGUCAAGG | 1.26 |
| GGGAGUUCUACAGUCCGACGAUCUCAAGUCCUGUGCUACACAUCGUAUGUACCGAAUCGGGAAGGGAAGGGGAAGGGGAAAGUAUUAUGUUACGCCGUUCGGAUCUGCACUUCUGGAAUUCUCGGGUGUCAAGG | -0.0382 |
| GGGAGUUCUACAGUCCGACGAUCACCAUGUAGGUGGGCAUCUUUGGGAAGUGGGGCAAGGGGGGGAUAGGGAGGGGGGUAACACUUUGGGAACAGGUGGUCCCAGGUCGUUUCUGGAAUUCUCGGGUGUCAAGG | 0.305 |
| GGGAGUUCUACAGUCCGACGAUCAGUCCUGUGCUACACAUCGUAUGUACCGAAUCGGGUUUGGGAAAAAGGGAAAAAGGGAAAGUAUUAUGUUACGCCGUUCGGAUCUGCACUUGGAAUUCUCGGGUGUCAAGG | -0.897 |
| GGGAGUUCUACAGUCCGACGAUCCCUGUGCUACACAUCGUAUGUACCGAAUCGGGCCCCCCGGGGCCCCCCGGGCCCCCCGGGAAAGUAUUAUGUUACGCCGUUCGGAUCUGCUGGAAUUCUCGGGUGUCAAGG | -2.43 |
| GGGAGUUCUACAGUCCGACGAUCGUCCUGUGCUACACAUCGUAUGUACCGAAUCGGUUUUUUGGUUUUUUGGGUUUUUUGGGAAAGUAUUAUGUUACGCCGUUCGGAUCUGCAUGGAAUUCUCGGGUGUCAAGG | -0.827 |
| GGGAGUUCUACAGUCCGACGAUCGUCCUGUGCUACACAUCGUAUGUACCGAAUCAAAUUUUUAAAUUUUUAAACCCCCAAAAAAGUAUUAUGUUACGCCGUUCGGAUCUGCACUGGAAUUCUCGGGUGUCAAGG | 0.541 |

Excerpt of the above (set 1):
| Modification | mean fluorescence intensity [a.u.] |
| --- | --- |
| 2'F-ANA at 1 2 6 7 8 10 13 14 15 | 52 |
| 2'F-ANA at 2 4 5 7 8 9 10 11 12 | 50.5 |
| 2'F-ANA at 3 4 5 11 12 13 15 | 108 |
| 2'F-ANA at 1 3 6 7 10 12 14 | 68.3 |
| 2'F-ANA at 2 3 5 8 9 10 15 | 75.1 |
